Measured values of several laboratories.
A part holds a random share of what one study measured.

Block 1
Target: Interferon regulatory factor 7, full length, phosphomimetic (IRF7, Homo sapiens, UniProt Q92985, residues 1-503, S471D/S472D/S475D/S476D/S477D/S483D/S484D/S487D)
Technique: protein-binding microarray
Form: double-stranded DNA, one strand shown
Medium: in vitro
Concentration: 2200 nM top
Notes: 60-bp whole probe
Added: salmon DNA 0.4 mg/ml
Baseline: random background probes
Reading: higher = stronger binding
Constant ends, left off below: GCCTAGCAC … GTCTTGATTCGCTTGACGCTGCTG
Target sequence (chain): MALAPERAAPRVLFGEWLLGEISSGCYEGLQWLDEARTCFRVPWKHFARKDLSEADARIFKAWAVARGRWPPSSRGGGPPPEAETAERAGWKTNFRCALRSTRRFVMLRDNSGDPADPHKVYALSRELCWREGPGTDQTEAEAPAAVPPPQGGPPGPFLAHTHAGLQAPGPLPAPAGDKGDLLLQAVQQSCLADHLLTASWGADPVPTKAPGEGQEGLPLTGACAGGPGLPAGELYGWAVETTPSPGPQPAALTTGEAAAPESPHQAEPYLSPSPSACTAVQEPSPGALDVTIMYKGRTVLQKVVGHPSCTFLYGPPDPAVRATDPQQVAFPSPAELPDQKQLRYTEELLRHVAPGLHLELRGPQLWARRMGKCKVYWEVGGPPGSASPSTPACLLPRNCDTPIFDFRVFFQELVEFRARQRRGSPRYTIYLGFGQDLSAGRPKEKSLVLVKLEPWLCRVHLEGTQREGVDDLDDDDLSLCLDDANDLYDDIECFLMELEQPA
| Strand | fitted relative affinity [z-score] |
| --- | --- |
| TTAGGACTGCTATTGCTTTAGTGCTAG | 0.00586 |
| TTAAATATCAGTTTCGATTAGTGCTAG | 5.64 |
| TTAGGCCTCGGTTTCGGTTAGTGCTAG | 5.96 |
| TTAGATTCCACTTTCGATTAGTGCTAG | 8.92 |
| GACGGTCTCGGACTCGGGACGTGCTAG | -0.376 |
| GTAGGTATCCTTATCCTTTAGTGCTAG | 0.717 |
| TCAGCTTTCTCTTTCATACTGTGCTAG | 5.58 |
| GCCGGTTTCGGACTGGGGACGTGCTAG | 4.81 |
| TTAGAAATGAGTATCGATTAGTGCTAG | -0.631 |
| GACGGTACCGACTATCGGGACGTGCTA | -0.581 |
| GACGGTATCGACTGTCGGGACGTGCTA | -0.516 |
| AGGAAAGTGTTTCTCAACCAGTGCTAG | 0.106 |

Block 2
Target: UBE2C UBC core domain (UniProt O00762)
UniProt O00762, sequence (whole entry, looked up): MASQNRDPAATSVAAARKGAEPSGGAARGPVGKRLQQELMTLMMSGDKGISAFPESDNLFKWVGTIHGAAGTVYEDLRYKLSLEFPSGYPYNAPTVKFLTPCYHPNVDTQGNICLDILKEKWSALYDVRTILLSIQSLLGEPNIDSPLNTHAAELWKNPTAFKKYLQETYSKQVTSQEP
Technique: yeast two-hybrid
Medium: yeast
Notes: mostly zero background
Baseline: not given
Reading: higher = stronger interaction
B1: SH3RF1 RING domain (UniProt Q7Z6J0); chain DESALLDLLECPVCLERLDASAKVLPCQHTFCKRCLLGIVGSRNELRCPECRTLVGSGVEEL
B2: RNF19A RING domain (UniProt Q9NV58); chain ISKQIGDFIECPLCLLRHSKDRFPDIMTCHHRSCVDCLRQYLRIEISESRVNISCPECTERFNPHDIR
B3: RFWD3 RING domain (UniProt Q6PCD5); chain ASMDEEEGDTCTICLEQWTNAGDHRLSALRCGHLFGYRCISTWLKGQVRKCPQCNKKARHSDIVV
B4: MDM4 RING domain (UniProt O15151); chain MEDCQNLLKPCSLCEKRPRDGNIIHGRTGHLVTCFHCARRLKKAGASCPICKKEIQLVIKVF
B5: ZMIZ2 RING domain (UniProt Q8NF64); chain GTIPGTPGPNGEDGVEQTAIKVSLKCPITFRRIQLPARGHDCRHIQCFDLESYLQLNCERGTWRCPVCNKTALLEGLEVDQYMLGILIYIQNSDYEEITIDPTCSWK
| Sequence | lacZ reporter activity |
| --- | --- |
| B1 (SH3RF1 RING domain) | 0 |
| B2 (RNF19A RING domain) | 0 |
| AMYLQENGIDCPKCKFSYALARGGCMHFHCTQCRHQFCSGCYNAFYAKNKC (RNF31 RING domain (UniProt Q96EP0)) | 0 |
| NLSELTPYILCSICKGYLIDATTITECLHTFCKSCIVRHFYYSNRCPKCNIVVHQTQPLY (PCGF6 RING domain (UniProt Q9BYE7)) | 0 |
| B3 (RFWD3 RING domain) | 0 |
| B4 (MDM4 RING domain) | 0 |
| B5 (ZMIZ2 RING domain) | 0 |

Block 3
Target: Histone acetyltransferase KAT6A, both winged helices, GST fusion (KAT6A, Homo sapiens, UniProt Q92794, residues 1-181)
Technique: protein binding microarray
Form: double-stranded DNA, one strand shown
Medium: in vitro
Concentration: not given
Notes: 8-mer, flanks averaged, mean of 2 arrays, mostly near background
Baseline: not given
Reading: higher = stronger binding
Target sequence (chain): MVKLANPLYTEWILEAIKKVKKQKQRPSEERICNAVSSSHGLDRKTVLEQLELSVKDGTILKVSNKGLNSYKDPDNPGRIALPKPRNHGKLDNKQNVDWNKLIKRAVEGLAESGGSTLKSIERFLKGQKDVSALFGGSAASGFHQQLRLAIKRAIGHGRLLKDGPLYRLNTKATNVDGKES
| Strand | E-score |
| --- | --- |
| CACGCAGG | -0.0073 |
| AGAATCCT | -0.202 |
| CAGACTCA | -0.0607 |
| TTTCCAAA | -0.111 |
| CAATAGCG | 0.146 |
| CGTAAGTC | 0.0337 |
| CACTAGTG | 0.0426 |
| GCTATACA | 0.00987 |
| GCTGGACC | -0.111 |
| CCTCAGAC | -0.0544 |
| GACATGAA | -0.00343 |
| AATCGCTC | 0.0285 |
| CACCTTTA | -0.116 |
| TTCACCAA | -0.00202 |
| AACAGCGT | 0.169 |
| AACACGCA | 0.142 |

Block 4
Target: RING finger protein unkempt homolog, zinc fingers 1-6, GST-SBP tag (UNK, Homo sapiens, UniProt Q9C0B0, residues 30-357)
Technique: RNA Bind-n-Seq
Form: RNA
Medium: in vitro
Concentration: not given
Notes: RNA with constant flanks, human and mouse sites, ends assumed
Baseline: input RNA pool
Reading: higher = stronger binding
Constant ends, left off below: GGGAGUUCUACAGUCCGACGAUC … CAACAGAGGAUUGAGCAUCA
Target sequence (chain): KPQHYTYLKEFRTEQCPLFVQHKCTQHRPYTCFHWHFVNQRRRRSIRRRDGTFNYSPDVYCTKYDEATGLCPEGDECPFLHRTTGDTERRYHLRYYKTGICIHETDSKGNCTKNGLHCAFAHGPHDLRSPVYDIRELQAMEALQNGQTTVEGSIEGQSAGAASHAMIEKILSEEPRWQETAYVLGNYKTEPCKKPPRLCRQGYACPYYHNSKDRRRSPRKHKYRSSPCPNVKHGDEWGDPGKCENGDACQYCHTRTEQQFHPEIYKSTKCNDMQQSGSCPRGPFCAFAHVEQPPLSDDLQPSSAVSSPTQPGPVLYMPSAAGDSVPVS
| Strand | bound/input enrichment [ratio] |
| --- | --- |
| UGUGACUGCACAGAAAAGUUACAGAGCAGGUUUGAUUUUCUGCGCUCUCAGCUGAAUGACAUCUCAUCUUUUAAGAAUAUCUACAGAUAUGCCUUUGAUUUUGCAAGGGAUAAAGAUCAG | 0.0647 |
| GUUGGCUGGCUCCGAUCAAAGAAGGCUGUUGACUGGCGACUGUUUCGAAACAUUUUUAUGGCCUGGUUUGUCACGGUCCCCAUCUCUGGGGUUAUCAGUGCCGCUAUCAUGGCAGUAUUC | 0.262 |
| UGGACAGCUGAUAAAUUUAAUCCUUCUUUGUAAUACUUUCUAUGUGACAUUUCUCUUCCCCUUAGAAACACUGCAAAUUUUAACUGUAGGUAUGAUCUCUUCUGGUGUUGACUGGACUGC | 9.21 |
| AGCUGUGCCUGCUAAAAUGGAUCAGUGAGAGAGGUUCCUGGACCUGUGAACUUUGCUGUUAUAGAUACCAUGUUAUAGCCAUUAAAAUGAAACAACCUUGCCAGGUCUCAUUGUUCAUGA | 1.95 |
| AAGAACUUGAAUCUCAACACAGUAUCUUAAAAGAUGAGGUAACUUAUAUGAAUAAUCUUAAGUUAAAACUUGAAAUGGAUGCUCAACAUAUAAAGGAUGAGUUUUUUCAUGAACGGGAAG | 0.203 |

Block 5
Target: Sal-like protein 4, full length isoform B (SALL4, Homo sapiens, UniProt Q9UJQ4-2, residues 1-616)
Technique: universal PBM
Form: double-stranded DNA, one strand shown
Medium: in vitro
Concentration: not given
Notes: 8-mer, flanks averaged, mean of replicates
Reading: higher = stronger binding
| Strand | E-score |
| --- | --- |
| ACGCGATA | 0.00515 |
| AACTGTAG | -0.0306 |
| AAGATAGG | 0.088 |
| GCTGTTTA | 0.151 |
| AGAAATCG | -0.0262 |
| AGTTAACG | 0.0975 |
| AATTCAAT | 0.257 |
| ATTGTAAG | 0.235 |
| GGAAATCA | 0.117 |
| AAGTTCTG | 0.0474 |
| CCGCGGGA | -0.25 |
| CTGGGGTC | -0.287 |
| AGGATTAT | 0.249 |
| CAACACCA | -0.0136 |
| ACATCATC | 0.103 |
| CCTTTGTC | 0.0287 |
| ACGAGTAA | 0.0994 |
| ACGACGCG | -0.0354 |
| CTCGGAGC | -0.229 |
| CTCCCAAG | -0.061 |
| CTAAAGGA | -0.011 |
| AGGTGACC | -0.212 |

A few entries again (block 2):
| Sequence | lacZ reporter activity |
| --- | --- |
| B5 (ZMIZ2 RING domain) | 0 |
| B1 (SH3RF1 RING domain) | 0 |
| B2 (RNF19A RING domain) | 0 |
| NLSELTPYILCSICKGYLIDATTITECLHTFCKSCIVRHFYYSNRCPKCNIVVHQTQPLY (PCGF6 RING domain (UniProt Q9BYE7)) | 0 |
| AMYLQENGIDCPKCKFSYALARGGCMHFHCTQCRHQFCSGCYNAFYAKNKC (RNF31 RING domain (UniProt Q96EP0)) | 0 |
| B4 (MDM4 RING domain) | 0 |
| B3 (RFWD3 RING domain) | 0 |
